Published values collected from several papers.
± marks the error that the study gave.

Structure (SMILES) = CC[C@H](C)[C@H](NC(=O)[C@H](CCCNC(=N)N)NC(=O)[C@H](CCCCN)NC(=O)[C@H](Cc1ccc(O)cc1)NC(=O)[C@H](CC(=O)O)NC(=O)[C@H](C)NC(=O)CNC(=O)CCOCCOCCOCCNC(=O)CN1CCN(CC(=O)O)CCN(CC(=O)O)CCN(CC(=O)O)CC1)C(=O)N[C@H](C(=O)N[C@@H](CC(C)C)C(=O)N[C@@H](CCCCN)C(=O)N[C@H](C(=O)N[C@@H](CC(N)=O)C(N)=O)C(C)C)[C@@H](C)O [copper-64 labelled]; test = ex vivo gamma counting; system = C57BL/6J male mice, B16-F10 tumour, heart; conditions = intravenous, 1.85 MBq, 5 min; tissue uptake = 2.13 ± 0.09 %ID/g
Structure (SMILES) = CC[C@H](C)[C@H](NC(=O)[C@@H](Cc1c[nH]c2ccccc12)NC(=O)[C@@H]1CCCN1C(=O)[C@H](CCCCN)NC(=O)[C@H](CCCCN)NC(=O)CCNC(=O)CCNC(=O)CN1CCN(CC(=O)O)CCN(CC(=O)O)CCN(CC(=O)O)CC1)C(=O)N[C@@H](C[Si](C)(C)C)C(=O)O [gallium-68 labelled]; test = ex vivo biodistribution; system = nude mice, HT-29 xenograft, colon; conditions = 90 min, together with: levocabastine 0.5 µmol; tissue uptake = 0.37 ± 0.08 %ID/g
Structure (SMILES) = CSCC[C@H](NC(=O)CNC(=O)[C@H](CCCCN)NC(=O)[C@H](CC(C)C)NC(=O)[C@@H]1CCCN1C(=O)[C@H](CO)NC(=O)[C@H](Cc1c[nH]cn1)NC(=O)[C@H](Cc1c[nH]c2ccccc12)NC(=O)[C@H](CCCNC(=N)N)NC(=O)[C@H](CC(C)C)NC(=O)[C@H](CCCNC(=N)N)NC(=O)[C@H](Cc1c[nH]c2ccccc12)NC(=O)[C@H](CS)NC(=O)CCCCCNC(=O)CN1CCN(CC(=O)O)CCN(CC(=O)O)CCN(CC(=O)O)CC1)C(=O)O [copper-64 labelled]; test = PET imaging; system = BALB/c nude mice, tumor; conditions = intravenous, dose not given, 9 h, Huh-7 tumour-bearing; tissue uptake = 2.78 ± 0.22 %ID/g
Structure (SMILES) = C[C@H](O)[C@@H](NC(=O)[C@H]1CCCN1C(=O)[C@@H](CCCCN)NC(=O)[C@@H](CO)NC(=O)[C@@H](Cc1ccc(O)cc1)NC(=O)[C@@H](CC(N)=O)NC(=O)CCOCCOCCOCCNC(=O)CN1CCN(CC(=O)O)CCN(CC(=O)O)CCN(CC(=O)O)CC1)C(=O)N[C@H](CC(=O)O)C(=O)N[C@H](CCCNC(=N)N)C(=O)N[C@H](CCC(N)=O)C(=O)N[C@H](Cc1ccc(O)cc1)C(=O)N[C@H](Cc1c[nH]cn1)C(=O)N[C@H](Cc1ccccc1)C(N)=O [gallium-68 labelled]; system = BALB/c nude mice U-87 MG tumour, liver; conditions = intravenous, 1.85 MBq, 1 h, radiolabelled; tissue uptake = 0.19 ± 0.02 %ID/g
Structure (SMILES) = CC(C)C[C@@H](NC(=O)[C@@H](CCCNC(=N)N)NC(=O)[C@@H](Cc1c[nH]cn1)NC(=O)[C@@H](Cc1c[nH]c2ccccc12)NC(=O)[C@@H](Cc1c[nH]cn1)NC(=O)[C@@H](Cc1ccccc1)NC(=O)[C@H](NC(=O)[C@@H](Cc1ccc(O)cc1)NC(=O)CNC(=O)CNC(=O)CCOCCOCCOCCNC(=O)CN1CCN(CC(=O)O)CCN(CC(=O)O)CC1)[C@H](C)O)C(=O)N[C@H](CC(N)=O)C(=O)N1CCC[C@@H]1C(=O)O [gallium-68 labelled]; system = C57BL/6 mice, male, spleen; conditions = intravenous, 1.85 MBq, 60 min, together with: GP12 blocking; tissue uptake = 1.79 ± 0.39 %ID/g
Structure (SMILES) = CC[C@H](C)[C@H](NC(=O)[C@H](CCCNC(=N)N)NC(=O)[C@H](CCCCN)NC(=O)[C@H](Cc1ccc(O)cc1)NC(=O)[C@H](CC(=O)O)NC(=O)[C@H](C)NC(=O)CNC(=O)CCOCCOCCOCCNC(=O)CN1CCN(CC(=O)O)CCN(CC(=O)O)CCN(CC(=O)O)CC1)C(=O)N[C@H](C(=O)N[C@H](C(=O)N[C@@H](CCCCN)C(=O)N[C@H](C(=O)N[C@@H](CC(N)=O)C(N)=O)C(C)C)C(C)C)[C@@H](C)O [copper-64 labelled]; test = ex vivo gamma counting; system = C57BL/6J male mice, B16-F10 tumour, liver; conditions = intravenous, 1.85 MBq, 20 min; tissue uptake = 3.76 ± 0.511 %ID/g
Structure (SMILES) = CCCC[C@H]1C(=O)N(C)[C@@H](CCCC)C(=O)N[C@@H](CCCNC(=O)CN2CCN(CC(=O)O)CCN(CC(=O)O)CCN(CC(=O)O)CC2)C(=O)N[C@H](C(=O)NCC(N)=O)CSCC(=O)N[C@@H](Cc2ccc(O)cc2)C(=O)N(C)[C@@H](C)C(=O)N[C@@H](CC(N)=O)C(=O)N2CCC[C@H]2C(=O)N[C@@H](Cc2c[nH]cn2)C(=O)N[C@@H](CC(C)C)C(=O)N(C)CC(=O)N[C@@H](Cc2c[nH]c3ccccc23)C(=O)N[C@@H](CO)C(=O)N[C@@H](Cc2c[nH]c3ccccc23)C(=O)N1C [gallium-68 labelled]; system = NOD/SCID mice with CHO-hPD-L1 xenograft, pancreas; conditions = 120 min post injection; tissue uptake = 1.52 ± 1.02 %ID/g
Structure (SMILES) = CC[C@H](C)[C@H](NC(=O)[C@H](CCCCN)NC(=O)CNC(=O)[C@H](CC(C)C)NC(=O)[C@H](Cc1ccccc1)NC(=O)[C@H](CCCCN)NC(=O)[C@H](CO)NC(=O)[C@H](Cc1ccccc1)NC(=O)[C@H](Cc1c[nH]c2ccccc12)NC(=O)[C@H](CCC(N)=O)NC(=O)[C@@H](NC(=O)[C@H](Cc1ccccc1)NC(=O)CCCCCNC(=O)CN1CCN(CC(=O)O)CCN(CC(=O)O)CCN(CC(=O)O)CC1)C(C)C)C(=O)N[C@@H](CCC(=O)O)C(=O)N1CCC[C@H]1C(=O)N[C@@H](CC(=O)O)C(=O)N[C@H](C(=O)N[C@@H](CO)C(=O)N[C@@H](CCC(N)=O)C(=O)N[C@H](C(=O)N[C@@H](CCC(N)=O)C(=O)N[C@@H](CC(=O)O)C(=O)N1CCC[C@H]1C(=O)N[C@@H](CC(N)=O)C(=O)N[C@@H](CC(=O)O)C(=O)N[C@@H](CCC(N)=O)C(=O)N[C@@H](Cc1ccc(O)cc1)C(=O)N[C@@H](CCC(=O)O)C(=O)N1CCC[C@H]1C(=O)N[C@@H](Cc1ccccc1)C(=O)O)C(C)C)C(C)C [copper-64 labelled]; system = BALB/c mice, male, CT26 tumour-bearing, heart; conditions = 2 h, vehicle-treated; tissue uptake = 1.53 ± 0.8 %ID/g

Excerpt of the above:
Structure (SMILES) = C[C@H](O)[C@@H](NC(=O)[C@H]1CCCN1C(=O)[C@@H](CCCCN)NC(=O)[C@@H](CO)NC(=O)[C@@H](Cc1ccc(O)cc1)NC(=O)[C@@H](CC(N)=O)NC(=O)CCOCCOCCOCCNC(=O)CN1CCN(CC(=O)O)CCN(CC(=O)O)CCN(CC(=O)O)CC1)C(=O)N[C@H](CC(=O)O)C(=O)N[C@H](CCCNC(=N)N)C(=O)N[C@H](CCC(N)=O)C(=O)N[C@H](Cc1ccc(O)cc1)C(=O)N[C@H](Cc1c[nH]cn1)C(=O)N[C@H](Cc1ccccc1)C(N)=O [gallium-68 labelled]; system = BALB/c nude mice U-87 MG tumour, liver; conditions = intravenous, 1.85 MBq, 1 h, radiolabelled; tissue uptake = 0.19 ± 0.02 %ID/g
